# Assay results gathered from unrelated publications.
# Each line is one published result; not all experiments were run side by side. ± gives the spread as reported.
Structure (SMILES),target or system,test,test system,conditions,how to read,measurement,value
CNCc1ccc2c(c1)N(C(=O)OCc1c(F)c(F)c(F)c(F)c1F)[C@H](CNC(=N)N)[C@H]2NC(=O)C(=O)Nc1ccc(Cl)c(F)c1,Human immunodeficiency virus 1,"viral infection, Env pseudovirus","TZM-bl, RHPA4259.7 clade B",,,IC80,2.83 µM
C[C@H](Nc1ncnc(N)c1C#N)c1c(-c2ccccc2)[nH]c2c(Cl)cccc2c1=O,46 protein kinases,kinase activity,,10 µM,,inhibition,no inhibition
CCCOC(=O)N1c2cc(CNC)ccc2[C@H](NC(=O)C(=O)Nc2ccc(Cl)c(F)c2)[C@H]1CNC(=N)N,HIV-1,viral infection,"TZM-bl, multiclade pseudovirus panel",excluding clade A/E recombinants,reference: BNM-III-170,fold potency increase,~10 fold
CC(=O)NCCN(CCC(=O)NCCN(CCC(=O)NCCN(CCC(=O)NCCC(N)=O)C(=O)[C@@H](N)Cc1ccccc1)C(=O)[C@@H](N)Cc1ccccc1)C(=O)[C@@H](N)CCCNC(=N)N,HIV-1 TAR RNA,,,"concentration not given, 25 °C",,binding enthalpy ΔH°,-8.53 ± 0.263 kcal/mol
F[P-](F)(F)(F)(F)F.OC(Cn1cncn1)(Cn1cc(-[c-]2cccc2)nn1)c1ccc(F)cc1F.[Co+3].c1cc[cH-]c1 (racemic),Trypanosoma cruzi,"parasite growth, resazurin",,"24 h, trypomastigote",,IC50,7.8 µM
CNCc1ccc2c(c1)C[C@H](CNC(=N)N)[C@H]2NC(=O)C(=O)Nc1ccc(Cl)c(F)c1,Human immunodeficiency virus 1,"viral infection, Env pseudovirus","TZM-bl, 6244_13_B5_4576 clade B T/F",,,IC80,15 µM

# Some of these lines once more:
Structure (SMILES),target or system,test,test system,conditions,how to read,measurement,value
F[P-](F)(F)(F)(F)F.OC(Cn1cncn1)(Cn1cc(-[c-]2cccc2)nn1)c1ccc(F)cc1F.[Co+3].c1cc[cH-]c1 (racemic),Trypanosoma cruzi,"parasite growth, resazurin",,"24 h, trypomastigote",,IC50,7.8 µM
